Published values collected from several papers.
A part holds a random share of what one study measured. Substitutions count along the parent as printed.
UniProt P13945, sequence (whole entry, looked up): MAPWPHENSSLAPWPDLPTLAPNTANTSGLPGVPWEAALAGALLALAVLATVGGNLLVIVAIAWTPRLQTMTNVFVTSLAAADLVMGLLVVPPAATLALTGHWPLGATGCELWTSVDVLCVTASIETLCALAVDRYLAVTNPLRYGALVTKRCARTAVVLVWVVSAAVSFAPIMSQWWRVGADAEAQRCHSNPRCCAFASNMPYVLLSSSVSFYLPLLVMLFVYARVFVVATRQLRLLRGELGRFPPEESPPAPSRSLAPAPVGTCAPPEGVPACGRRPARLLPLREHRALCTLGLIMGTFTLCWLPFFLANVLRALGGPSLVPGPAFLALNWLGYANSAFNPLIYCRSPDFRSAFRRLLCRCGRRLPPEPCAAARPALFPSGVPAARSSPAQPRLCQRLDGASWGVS

Block 1 — target: CCNB1, cyclin fold, Cln2 fusion (human); method: yeast growth competition, sequencing; sample: yeast; notes: strong parent motif; baseline: not given; reading: higher = stronger binding
Starting sequence: MASTL docking peptide (human); PMIAKNLMCELDE
Change | normalised enrichment score
PMIAKNLMCRLDE [E10R] | 0.498
PMIAKNLMCENDE [L11N] | -0.0994
PMIADNLMCELDE [K5D] | -0.0993
PMIAKNLMCELPE [D12P] | 0.346
PMKAKNLMCELDE [I3K] | 0.18
PMIRKNLMCELDE [A4R] | 2.67
PMIYKNLMCELDE [A4Y] | 1.37
PMIAKNLMCECDE [L11C] | -0.205

Block 2 — method: protein-binding microarray; form: double-stranded DNA, one strand shown; sample: in vitro; concentration: 250 nM; notes: 60-bp whole probe; together with: salmon DNA 0.4 mg/ml; baseline: random background probes; reading: higher = stronger binding; all sequences stand within: GCCTAGCAC … GTCTTGATTCGCTTGACGCTGCTG
Target: Interferon regulatory factor 7, full length, phosphomimetic (IRF7, Homo sapiens, UniProt Q92985, residues 1-503, S101K/S471D/S472D/S475D/S476D/S477D/S483D/S484D/S487D)
UniProt Q92985, sequence (whole entry, unmodified, looked up): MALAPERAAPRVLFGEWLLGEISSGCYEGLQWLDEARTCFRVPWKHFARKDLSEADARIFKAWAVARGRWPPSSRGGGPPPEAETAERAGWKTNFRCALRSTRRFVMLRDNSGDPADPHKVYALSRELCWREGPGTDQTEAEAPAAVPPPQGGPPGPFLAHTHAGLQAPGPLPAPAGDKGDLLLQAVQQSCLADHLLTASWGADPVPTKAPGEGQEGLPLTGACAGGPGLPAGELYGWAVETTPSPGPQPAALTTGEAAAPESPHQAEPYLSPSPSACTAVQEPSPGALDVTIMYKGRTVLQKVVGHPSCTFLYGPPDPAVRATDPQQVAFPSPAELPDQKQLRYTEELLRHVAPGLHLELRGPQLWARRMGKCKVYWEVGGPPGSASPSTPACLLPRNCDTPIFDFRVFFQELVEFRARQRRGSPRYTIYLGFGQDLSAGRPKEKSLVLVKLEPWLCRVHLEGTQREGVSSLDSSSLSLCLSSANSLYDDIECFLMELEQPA
Sequence | log fluorescence
TCAGCTTCCTCTTTCTCACTGTGCTAG | 0.608 z-score
TCATCTCCAGGGTTTCTCACTGTGCTA | 0.153 z-score
TTAGGTTTCCTTTCCCTTCAGTGCTAG | 4.42 z-score
TTAGGTTTCGACTTTCGGTTGGTGCTA | 11 z-score
GACGGTATCGACTATAGGGACGTGCTA | -0.262 z-score
CGGGCTTTCCCGTCCAGGGCGTGCTAG | 0.482 z-score
GACGGTTTCGGTATCGGAACGTGCTAG | 11.1 z-score
TTAGGTCTCCTTCTCCTTCAGTGCTAG | 0.35 z-score

Further values, each from its own experiment
SMILES | target or system | test | system | setting | quantity | result
Cc1nnc2ccc(N3CCNc4ccccc4C3)nn12 | – | – | mouse, microsomes or S9 | 2 µM, 0.5 h | remaining compound | 79.9%
O=C(NNS(=O)(=O)c1ccccc1)c1cc(-c2ccnnc2)ccc1F | Beta-3 adrenergic receptor (ADRB3, Homo sapiens, UniProt P13945) | cell-free assay | – | 10 µM | inhibition | -12%
CN(C)C(=O)C1CNCCN1C(=O)OC(C)(C)C (stereo not shown) | – | – | mouse, microsomes or S9 | 2 µM, 0.5 h | remaining compound | 66.1%

Repeated from above (block 2):
Sequence | log fluorescence
CGGGCTTTCCCGTCCAGGGCGTGCTAG | 0.482 z-score
